Assay results gathered from unrelated publications.
Compare with care: the assays were run in different laboratories. “And” joins repeats or separate records; there may be more than shown. Numbers after ± are the reported error.
SLC6A9: Sodium- and chloride-dependent glycine transporter 1 (SLC6A9, Homo sapiens, UniProt P48067)
USP14: Ubiquitin carboxyl-terminal hydrolase 14 (USP14, Homo sapiens, UniProt P54578)
Gria2/Glutamate receptor 3: Gria2/Glutamate receptor 3 (Rattus norvegicus, UniProt P19491+P19492)

SMILES	target	assay	test system	conditions	how to read	measurement	result
CCCCCC(O)/C=C/C=O (stereo not drawn)	Outer kinetochore KNL1 complex subunit ZWINT (ZWINT, Homo sapiens, UniProt O95229)	competitive isoTOP-ABPP, measured: ZWINT cysteine peptide	proteome, soluble, MDA-MB-231	100 µM, with: iodoacetamide probe	reference: DMSO over compound-treated, higher = stronger cysteine blockade	isoTOP-ABPP competition ratio	1.8
CC(C)(C)OC(=O)NC(Cc1cccc(Cl)c1)C(=O)NCC=CS(=O)(=O)c1ccccc1 (stereo not drawn)	Cathepsin S (CTSS, Homo sapiens, UniProt P25774)	inhibitor	–	with: Z-Phe-Arg-AMC	–	kinact/Ki	2940 M⁻¹ s⁻¹
Cc1ccc(-n2cc(CSc3nc4ccccc4n3Cc3cn(-c4ccc(C)cc4)nn3)nn2)cc1	DNA topoisomerase I (calf thymus)	enzyme activity, inhibitor	Caco-2	50, 100, 500 ppm, 30 min, 37 °C	–	geometric mean inhibition	28.6%
Cc1ncsc1-c1ccc(CNC(=O)[C@@H]2C[C@@H](O)CN2C(=O)[C@@H](NC(=O)C2(F)CC2)C(C)(C)C)c(OCCC2CCN(c3nc(N(C)CCNC(=O)C(C)C)nc(N4CCn5nnc(CO)c5C4)n3)CC2)c1	VHL/BRD9 (Homo sapiens, UniProt P40337+Q9H8M2)	BRD9 degradation, degrader, HiBiT	HEK293T BRD9-HiBiT	15 h	–	Dmax	78%
O=C(NC1CCNCC1)c1cccc(F)c1	SLC6A9	cell-free assay	–	1 µM	–	remaining signal	105%
O=C1C(=CO)c2ccccc2-c2ccccc21	USP14	enzyme activity, inhibitor	–	17 µM	–	inhibition	100%
COc1cc(-c2cn(C)c(=O)c3cnccc23)cc(OC)c1CN(C)C	Histone acetyltransferase p300 (EP300, Homo sapiens, UniProt Q09472)	–	–	–	–	ΔTm	0.9 °C
COC(=O)Cc1cc2c(cc1C(=O)c1ccccc1Cl)OCO2	Gria2/Glutamate receptor 3	glutamate-evoked current, whole-cell patch clamp	HEK-293T	concentration not given, pH 7.4, holding potential -60 mV, with: 10 mM glutamate	–	current amplitude	226 ± 15 pA
C#CCOC(=O)[C@]1(C)C=C(C(=O)Nc2cccc(C(=O)Nc3ccc(C)c(Nc4nccc(-c5cccnc5)n4)c3)c2)C(=O)CC1	Mitogen-activated protein kinase 9 (MAPK9, Homo sapiens, UniProt P45984)	enzyme activity, inhibitor	–	0.0007527 µM, unit not given	reference: vehicle	remaining activity	0.98
N=C(N)NCCC[C@H](NC(=O)[C@@H]1CCCN1C(=O)[C@H](CCCNC(=N)N)NC(=O)[C@@H]1CCCN1C(=O)[C@H](CCCNC(=N)N)NC(=O)[C@@H]1CCCN1C(=O)[C@H](CCCNC(=N)N)NC(=O)[C@@H]1CCCN1C(=O)[C@H](CCCNC(=N)N)NC(=O)[C@@H]1CCCN1C(=O)[C@H](CCCNC(=N)N)NC(=O)[C@@H]1CCCN1C(=O)[C@H](CCCNC(=N)N)NC(=O)[C@@H]1CCCN1C(=O)[C@H](CCCNC(=N)N)NC(=O)[C@@H]1CCCN1C(=O)[C@H](CCCNC(=N)N)NC(=O)[C@@H]1CCCN1C(=O)[C@H](CCCNC(=N)N)NC(=O)[C@@H]1CCCN1C(=O)[C@H](CCCNC(=N)N)NC(=O)[C@@H]1CCCN1C(=O)[C@H](CCCNC(=N)N)NC(=O)[C@@H]1CCCN1C(=O)[C@H](CCCNC(=N)N)NC(=O)[C@@H]1CCCN1C(=O)[C@H](CCCNC(=N)N)NC(=O)[C@@H]1CCCN1C(=O)[C@H](CCCNC(=N)N)NC(=O)[C@@H]1CCCN1C(=O)[C@H](CCCNC(=N)N)NC(=O)[C@@H]1CCCN1C(=O)[C@H](CCCNC(=N)N)NC(=O)[C@@H]1CCCN1C(=O)[C@H](CCCNC(=N)N)NC(=O)[C@@H]1CCCN1C(=O)[C@H](CCCNC(=N)N)NC(=O)[C@@H]1CCCN1C(=O)[C@H](CCCNC(=N)N)NC(=O)[C@@H]1CCCN1C(=O)[C@H](CCCNC(=N)N)NC(=O)[C@@H]1CCCN1C(=O)[C@H](CCCNC(=N)N)NC(=O)[C@@H]1CCCN1C(=O)[C@H](CCCNC(=N)N)NC(=O)[C@@H]1CCCN1C(=O)[C@H](Cc1ccc(O)cc1)NC(=O)[C@H](CO)NC(=O)CN)C(=O)O	Nucleophosmin (NPM1, Homo sapiens, UniProt P06748)	SANS P(r) analysis	–	0.7 molar excess over NPM1, 25 °C	–	radius of gyration	53.1 ± 2.31 Å
CC(C)Oc1cc(Cl)ccc1CNc1cc(-c2ccccc2)nc2ncnn12	G-protein coupled receptor 3 (GPR3, Homo sapiens, UniProt P46089, R152A)	cAMP level, cAMP GloSensor	–	300 nM	higher = more cAMP	cAMP luminescence	23800 a.u. and 28300 a.u. and 17700 a.u. and 27500 a.u.
O=C(O)Cc1cc2c(cc1C(=O)c1ccc(Cl)cc1Cl)OCO2	Gria2/Glutamate receptor 3	whole-cell patch clamp	HEK-293T	concentration not given, with: glutamate	–	deactivation time constant	10.4 ± 0.6 ms
COc1cc(/C=C/C=O)cc(OC)c1O	uncharacterized protein (Solanum tuberosum, UniProt M0ZZL3)	enzyme activity	–	–	–	Hill coefficient	1 ± 0.1
CC1=CSC(=C(C#N)C(=O)N2CCCCC2)N1c1ccccc1	USP14	enzyme activity, inhibitor	–	17 µM	–	inhibition	3%
Cc1cc(C)cc(COc2cc3c(cc2OCc2cc(C)cc(C)c2)C2CC(O)(Cc4cn(CCOCCOCCNC(=O)CCCCC5SCC6NC(=O)NC65)nn4)CC(C)N2CC3)c1 (stereo not drawn)	Transportin-3 (Homo sapiens, UniProt Q9Y5L0)	biotinylated probe pull-down, measured: TNPO3	–	10 µM probe	reference: heavy over light	SILAC ratio	2.04
N#Cc1ccccc1-c1cc(CN2c3ccccc3C=Cc3ccccc32)on1	PPO3 (Agaricus bisporus, UniProt C7FF04)	enzyme activity, inhibitor	–	concentration not given	–	apparent Km	5.24 mM
C[Si](C)(C)C[C@H](CN)CC(=O)O	P2X receptor, rabbit	binding, radioligand binding	–	250 µM, with: [3H]alpha,beta-methylene-ATP	–	inhibition	6%
C=CC(=O)N1CCCC(n2c(=O)c3ncccc3n(Cc3ccc(Oc4ccccc4)cc3)c2=O)C1 (stereo not drawn)	Proliferating cell nuclear antigen (PCNA, Homo sapiens, UniProt P12004)	thermal proteome profiling	cell proteome	unit not given	reference: vehicle	melting temperature shift	1.34
COc1ccc(C(OCCN2CCC[C@@H]2C(=O)O)(c2ccc(OC)cc2)c2ccc(OC)cc2)cc1	SLC6A9	cell-free assay	–	1 µM	–	remaining signal	18.2%
CC[C@H](C)[C@H](NC(=O)[C@@H](NC(=O)c1ccnc(Cl)c1Cl)C(C)(C)C)C(=O)N[C@H](C(=O)N[C@H](C(=O)N[C@H](C(=O)N[C@@H](CCC(N)=O)C(=O)N[C@@H](Cc1c[nH]cn1)C(=O)N[C@H](CC(C)C)C(=O)N[C@@H](CO)C(=O)NCCOCCOCC(=O)N[C@@H](CCCCNC(=O)CC[C@@H]1NC(=O)[C@@H](CCCNC(=N)N)NC(=O)[C@H](CCCNC(=N)N)NC(=O)[C@@H](CCCNC(=N)N)NC(=O)[C@H](CCCNC(=N)N)NC(=O)[C@H](Cc2ccc3ccccc3c2)NC(=O)[C@@H](Cc2ccccc2)NC1=O)C(N)=O)[C@@H](C)O)[C@@H](C)CC)C(C)(C)O	Protein phosphatase 3 catalytic subunit alpha, with calcineurin B (PPP3CA, Homo sapiens, UniProt Q08209)	fluorescence polarisation	–	concentration not given	reference: reference peptide	relative binding affinity	5 fold
N#CN1CC[C@H](C(=O)Nc2nc3c(s2)CN(C(=O)Cn2cc(CNC(=O)CCCC[C@@H]4SC[C@@H]5NC(=O)N[C@@H]54)nn2)CC3)C1	(E3-independent) E2 ubiquitin-conjugating enzyme (UBE2O, Homo sapiens, UniProt Q9C0C9)	probe binding, affinity probe, neutravidin pull-down LC-MS/MS	HEK293T, cell lysate	5 µM, 1 h, single replicate, unit not given	higher = more pulled down	iBAQ abundance	582000 and 1.35e+06 and 915000
CC(C)[C@@H]1NC(=O)[C@H](Cc2ccccc2)NC(=O)CSC[C@@H](C(N)=O)NC(=O)[C@H](CCC(=O)O)NC(=O)[C@H](CO)NC(=O)[C@H](Cc2c[nH]c3cccc(Cl)c23)NC(=O)[C@H](C2CCCCC2)NC(=O)[C@H](C(C)C)NC(=O)[C@H](Cc2ccc(O)cc2)NC(=O)[C@H](CC(=O)O)NC(=O)[C@H](Cc2c[nH]c3ccccc23)NC(=O)[C@H](Cc2ccc(N)nc2)NC(=O)[C@H](Cc2c[nH]c3ccc(Cl)cc23)NC(=O)[C@H](CCC(=O)O)NC1=O	Interleukin-1 receptor-like 2 (IL1RL2, Homo sapiens, UniProt Q9HB29)	reporter gene (SEAP), inhibitor, HEK-Blue IL-36R reporter	HEK-Blue IL-36R cells	100 µM, 6 h, with: IL-36γ 0.1 ng/mL	–	remaining activity	0.3%
O=C(O)CCCN1C(=O)C(=C2SC(=S)N(CCCC(=O)O)C2=O)SC1=S	USP14	enzyme activity, inhibitor	–	17 µM	–	inhibition	1%
CC[C@H]1CN([C@@H](CC)c2ccc(C(F)(F)F)cc2)[C@H](CC)CN1c1nc(=O)n(C)c2ccc(C#N)nc12	Diacylglycerol kinase theta (DGKQ, Homo sapiens, UniProt P52824)	inhibitor	–	concentration not given, type V DGK	–	kinase activity	inactive
CCCCOc1ccc(CSC(=N)N)cc1	USP14	enzyme activity, inhibitor	–	17 µM	–	inhibition	4%
COC(=O)[C@@]1(C)C=C(C(=O)Nc2cccc(C(=O)Nc3ccc(Nc4nccc(-c5cccnc5)n4)c(C)c3)c2)C(=O)CC1	Mitogen-activated protein kinase 1 (MAPK1, Homo sapiens, UniProt P28482)	kinase activity, inhibitor	–	4.938 µM, unit not given	reference: no inhibitor	remaining activity	0.916
Cc1cc(=O)oc2cc(NC(=O)CCCCCCC(=O)NO)ccc12	Histone deacetylase 8 (HDAC8, Homo sapiens, UniProt Q9BY41)	ITC	Tris-HCl buffer	288 K	–	TΔS°	3.52 kcal/mol

Excerpt of the above:
SMILES	target	assay	test system	conditions	how to read	measurement	result
CCCCCC(O)/C=C/C=O (stereo not drawn)	Outer kinetochore KNL1 complex subunit ZWINT (ZWINT, Homo sapiens, UniProt O95229)	competitive isoTOP-ABPP, measured: ZWINT cysteine peptide	proteome, soluble, MDA-MB-231	100 µM, with: iodoacetamide probe	reference: DMSO over compound-treated, higher = stronger cysteine blockade	isoTOP-ABPP competition ratio	1.8
COc1ccc(C(OCCN2CCC[C@@H]2C(=O)O)(c2ccc(OC)cc2)c2ccc(OC)cc2)cc1	SLC6A9	cell-free assay	–	1 µM	–	remaining signal	18.2%
CC1=CSC(=C(C#N)C(=O)N2CCCCC2)N1c1ccccc1	USP14	enzyme activity, inhibitor	–	17 µM	–	inhibition	3%
O=C1C(=CO)c2ccccc2-c2ccccc21	USP14	enzyme activity, inhibitor	–	17 µM	–	inhibition	100%
